Published values from different studies.
Every numbered part comes from another study and shows a few of its results, in no order. Changes are numbered by the printed parent chain.
UniProt P50750, sequence (whole entry, looked up): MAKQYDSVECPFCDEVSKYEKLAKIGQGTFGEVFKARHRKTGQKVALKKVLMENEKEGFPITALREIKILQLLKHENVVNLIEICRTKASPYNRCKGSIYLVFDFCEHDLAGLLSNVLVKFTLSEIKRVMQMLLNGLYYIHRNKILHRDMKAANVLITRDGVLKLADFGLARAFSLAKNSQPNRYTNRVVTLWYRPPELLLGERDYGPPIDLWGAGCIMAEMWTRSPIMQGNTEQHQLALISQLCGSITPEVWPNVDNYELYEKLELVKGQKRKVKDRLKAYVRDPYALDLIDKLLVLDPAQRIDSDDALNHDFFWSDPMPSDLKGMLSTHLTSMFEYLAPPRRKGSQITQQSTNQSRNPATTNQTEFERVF
UniProt Q15349, sequence (whole entry, looked up): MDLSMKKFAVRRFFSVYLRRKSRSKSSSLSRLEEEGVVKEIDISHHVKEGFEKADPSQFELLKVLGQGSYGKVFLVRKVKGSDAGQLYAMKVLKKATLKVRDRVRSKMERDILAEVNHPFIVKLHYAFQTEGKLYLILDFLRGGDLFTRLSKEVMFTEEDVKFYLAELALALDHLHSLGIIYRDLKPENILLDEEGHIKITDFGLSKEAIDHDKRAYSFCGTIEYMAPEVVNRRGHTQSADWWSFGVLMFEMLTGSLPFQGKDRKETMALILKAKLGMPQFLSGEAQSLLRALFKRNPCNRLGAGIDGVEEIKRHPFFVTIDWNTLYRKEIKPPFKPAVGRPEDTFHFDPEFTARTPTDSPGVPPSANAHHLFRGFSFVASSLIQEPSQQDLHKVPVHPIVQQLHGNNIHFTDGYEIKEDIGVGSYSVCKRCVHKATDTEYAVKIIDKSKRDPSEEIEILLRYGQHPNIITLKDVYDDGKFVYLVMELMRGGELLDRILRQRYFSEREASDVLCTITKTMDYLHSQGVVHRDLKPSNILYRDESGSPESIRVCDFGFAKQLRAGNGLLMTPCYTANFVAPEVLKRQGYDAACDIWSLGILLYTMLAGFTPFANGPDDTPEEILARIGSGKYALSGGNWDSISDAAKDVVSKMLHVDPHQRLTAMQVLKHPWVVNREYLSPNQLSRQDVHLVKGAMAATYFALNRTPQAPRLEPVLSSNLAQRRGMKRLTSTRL
UniProt Q32MK0, sequence (whole entry, looked up): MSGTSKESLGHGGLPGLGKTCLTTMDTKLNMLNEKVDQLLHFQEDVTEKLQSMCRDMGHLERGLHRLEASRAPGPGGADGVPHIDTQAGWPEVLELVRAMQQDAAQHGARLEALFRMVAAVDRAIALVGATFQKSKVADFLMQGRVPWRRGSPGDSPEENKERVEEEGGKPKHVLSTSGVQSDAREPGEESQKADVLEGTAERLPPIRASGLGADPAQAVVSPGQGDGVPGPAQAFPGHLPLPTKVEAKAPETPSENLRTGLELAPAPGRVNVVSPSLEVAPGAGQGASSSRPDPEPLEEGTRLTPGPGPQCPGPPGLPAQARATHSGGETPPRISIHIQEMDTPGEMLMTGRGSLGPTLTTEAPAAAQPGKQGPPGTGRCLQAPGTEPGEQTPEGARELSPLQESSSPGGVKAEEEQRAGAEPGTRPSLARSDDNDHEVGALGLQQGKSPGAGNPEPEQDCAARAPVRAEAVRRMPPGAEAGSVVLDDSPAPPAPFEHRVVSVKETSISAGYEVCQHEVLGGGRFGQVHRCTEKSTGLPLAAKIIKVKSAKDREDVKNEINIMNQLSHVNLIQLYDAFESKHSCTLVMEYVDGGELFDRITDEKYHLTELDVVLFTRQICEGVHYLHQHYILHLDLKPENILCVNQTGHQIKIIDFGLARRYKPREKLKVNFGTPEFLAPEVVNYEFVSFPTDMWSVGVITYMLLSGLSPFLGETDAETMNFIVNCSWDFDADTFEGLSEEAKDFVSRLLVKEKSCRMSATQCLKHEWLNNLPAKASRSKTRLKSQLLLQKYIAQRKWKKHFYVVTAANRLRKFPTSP
UniProt O75676, sequence (whole entry, looked up): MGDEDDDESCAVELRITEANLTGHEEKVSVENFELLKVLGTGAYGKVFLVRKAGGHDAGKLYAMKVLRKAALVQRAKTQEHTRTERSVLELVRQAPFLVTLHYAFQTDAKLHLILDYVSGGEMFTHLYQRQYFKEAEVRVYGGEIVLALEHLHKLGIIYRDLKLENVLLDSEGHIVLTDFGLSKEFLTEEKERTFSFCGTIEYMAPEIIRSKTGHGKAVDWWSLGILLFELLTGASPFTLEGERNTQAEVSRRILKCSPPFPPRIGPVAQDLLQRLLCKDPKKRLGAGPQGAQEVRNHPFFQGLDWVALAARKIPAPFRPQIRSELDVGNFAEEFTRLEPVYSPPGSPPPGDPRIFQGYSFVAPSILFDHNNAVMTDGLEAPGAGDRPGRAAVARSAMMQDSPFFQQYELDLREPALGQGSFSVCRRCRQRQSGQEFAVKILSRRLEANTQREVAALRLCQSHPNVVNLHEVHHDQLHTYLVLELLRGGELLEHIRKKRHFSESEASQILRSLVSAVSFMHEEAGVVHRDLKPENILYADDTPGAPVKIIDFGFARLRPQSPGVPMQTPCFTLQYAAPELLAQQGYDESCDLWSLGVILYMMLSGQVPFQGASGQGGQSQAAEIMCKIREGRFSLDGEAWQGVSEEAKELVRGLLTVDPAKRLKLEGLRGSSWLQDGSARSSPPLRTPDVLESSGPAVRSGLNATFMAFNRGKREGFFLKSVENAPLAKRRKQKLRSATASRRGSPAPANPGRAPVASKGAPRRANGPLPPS
UniProt O60285, sequence (whole entry, looked up): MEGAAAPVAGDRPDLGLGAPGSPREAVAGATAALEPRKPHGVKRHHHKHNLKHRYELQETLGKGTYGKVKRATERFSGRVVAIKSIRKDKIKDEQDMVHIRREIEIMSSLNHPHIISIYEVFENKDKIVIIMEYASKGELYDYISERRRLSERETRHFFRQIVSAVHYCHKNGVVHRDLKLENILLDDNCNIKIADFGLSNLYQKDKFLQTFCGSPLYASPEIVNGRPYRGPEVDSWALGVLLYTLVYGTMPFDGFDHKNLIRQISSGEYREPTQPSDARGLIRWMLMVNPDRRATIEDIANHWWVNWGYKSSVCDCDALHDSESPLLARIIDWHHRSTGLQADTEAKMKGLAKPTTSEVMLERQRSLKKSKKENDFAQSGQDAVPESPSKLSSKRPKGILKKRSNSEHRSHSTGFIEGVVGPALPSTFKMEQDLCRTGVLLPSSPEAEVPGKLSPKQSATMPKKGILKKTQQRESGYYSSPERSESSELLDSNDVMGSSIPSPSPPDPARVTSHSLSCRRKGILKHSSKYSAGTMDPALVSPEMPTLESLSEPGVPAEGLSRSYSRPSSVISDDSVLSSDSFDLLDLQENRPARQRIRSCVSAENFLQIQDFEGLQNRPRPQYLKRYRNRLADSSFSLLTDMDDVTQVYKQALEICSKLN
UniProt O75914, sequence (whole entry, looked up): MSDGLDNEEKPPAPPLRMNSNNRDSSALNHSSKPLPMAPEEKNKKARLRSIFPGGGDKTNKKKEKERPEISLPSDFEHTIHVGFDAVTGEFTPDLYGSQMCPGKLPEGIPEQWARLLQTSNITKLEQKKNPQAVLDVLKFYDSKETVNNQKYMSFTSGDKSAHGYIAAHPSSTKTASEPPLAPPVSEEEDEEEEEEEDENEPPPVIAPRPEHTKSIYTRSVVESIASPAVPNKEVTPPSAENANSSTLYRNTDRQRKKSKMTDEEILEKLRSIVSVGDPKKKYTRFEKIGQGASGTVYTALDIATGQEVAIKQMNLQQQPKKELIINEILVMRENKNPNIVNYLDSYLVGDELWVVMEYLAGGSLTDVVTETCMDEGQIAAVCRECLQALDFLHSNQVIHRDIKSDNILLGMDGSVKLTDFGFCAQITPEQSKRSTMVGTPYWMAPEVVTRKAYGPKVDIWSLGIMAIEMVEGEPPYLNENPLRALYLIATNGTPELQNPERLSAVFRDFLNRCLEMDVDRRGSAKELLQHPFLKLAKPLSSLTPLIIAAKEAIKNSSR
UniProt P06493, sequence (whole entry, looked up): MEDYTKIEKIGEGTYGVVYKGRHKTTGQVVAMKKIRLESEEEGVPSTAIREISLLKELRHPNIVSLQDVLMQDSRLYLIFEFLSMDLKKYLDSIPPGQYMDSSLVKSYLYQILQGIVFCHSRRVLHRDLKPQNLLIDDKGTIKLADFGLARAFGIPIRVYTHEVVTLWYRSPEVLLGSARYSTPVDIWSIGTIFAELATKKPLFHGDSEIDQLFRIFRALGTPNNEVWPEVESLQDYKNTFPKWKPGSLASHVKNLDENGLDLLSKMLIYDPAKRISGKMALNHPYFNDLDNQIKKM
UniProt Q9HAZ1, sequence (whole entry, looked up): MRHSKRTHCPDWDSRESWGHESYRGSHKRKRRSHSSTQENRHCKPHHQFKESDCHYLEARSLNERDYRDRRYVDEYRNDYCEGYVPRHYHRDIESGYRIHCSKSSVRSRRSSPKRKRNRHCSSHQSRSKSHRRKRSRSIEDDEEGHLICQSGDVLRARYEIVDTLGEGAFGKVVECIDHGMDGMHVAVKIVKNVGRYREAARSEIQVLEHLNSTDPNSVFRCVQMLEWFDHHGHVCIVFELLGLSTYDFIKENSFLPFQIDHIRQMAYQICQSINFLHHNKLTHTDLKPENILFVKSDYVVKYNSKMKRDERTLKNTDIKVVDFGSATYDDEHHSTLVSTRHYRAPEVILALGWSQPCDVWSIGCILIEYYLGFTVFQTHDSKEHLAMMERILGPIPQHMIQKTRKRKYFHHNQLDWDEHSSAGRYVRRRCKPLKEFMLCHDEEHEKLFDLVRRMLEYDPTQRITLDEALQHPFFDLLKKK

Series 1
SMILES: CCN(CC)CCCCN1c2ccccc2Oc2ccc(Cl)cc21
Observed: enzyme activity
Action: inhibitor
Concentration: 0.5 µM
Relative to: control
Measurement: remaining activity
Misshapen-like kinase 1 (MINK1, Homo sapiens, UniProt Q8N4C8): 111%
Ribosomal protein S6 kinase alpha-4 (RPS6KA4, Homo sapiens, UniProt O75676): 80.8%
Serine/threonine-protein kinase MRCK beta (CDC42BPB, Homo sapiens, UniProt Q9Y5S2): 99.7%
Dual specificity protein kinase CLK3 (CLK3, Homo sapiens, UniProt P49761): 104%
Cyclin-dependent kinase 9, with cyclin K (CDK9, Homo sapiens, UniProt P50750): 105%
Cyclin-dependent kinase 1, with cyclin A (CDK1, Homo sapiens, UniProt P06493): 99.3%
MAP/microtubule affinity-regulating kinase 4 (MARK4, Homo sapiens, UniProt Q96L34): 97.2%
Discoidin domain-containing receptor 2 (DDR2, Homo sapiens, UniProt Q16832): 99.4%
Hepatocyte growth factor receptor (MET, Homo sapiens, UniProt P08581): 105%
Dual specificity protein kinase CLK4 (CLK4, Homo sapiens, UniProt Q9HAZ1): 97%
Calcium/calmodulin-dependent protein kinase type IV (CAMK4, Homo sapiens, UniProt Q16566): 98.9%
Serine/threonine-protein kinase PAK 3 (PAK3, Homo sapiens, UniProt O75914): 116%
cGMP-dependent protein kinase 2 (PRKG2, Homo sapiens, UniProt Q13237): 94.4%

Series 2
Target: CEP164, C-terminal peptide (human)
Technique: DHFR complementation, deep sequencing
Sample: yeast
Setting: single substitutions, model-inferred values
Relative to: wild type
Reading: higher = weaker binding
Measurement: binding free energy change
Starting sequence: PDZK1, PDZ domain 2 (human); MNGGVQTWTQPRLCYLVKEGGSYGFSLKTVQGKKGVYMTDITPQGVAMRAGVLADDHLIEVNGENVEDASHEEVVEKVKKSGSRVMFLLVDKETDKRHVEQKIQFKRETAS; partner HNRVKVYRF
R97G: -0.0911 kcal/mol
K92T: 0.066 kcal/mol
V17Q: -0.0661 kcal/mol
L13F: 0.0168 kcal/mol
A54D: -0.232 kcal/mol
V90I: -0.151 kcal/mol
D56Q: 0.225 kcal/mol
M48W: -0.267 kcal/mol

Series 3
Target: Max-binding protein MNT, bHLH-zipper, MAX partner unstated (MNT, Homo sapiens, UniProt Q99583, residues 220-300)
Technique: protein-binding microarray
Form: double-stranded DNA, one strand shown
Sample: in vitro
Concentration: not given
Setting: k-mer, scored over probes, only values ≥0.25
Reading: higher = stronger binding
Measurement: E-score
Target sequence (chain): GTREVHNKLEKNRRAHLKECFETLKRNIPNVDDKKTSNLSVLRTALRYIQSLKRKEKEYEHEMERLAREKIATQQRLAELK
ATTGCACG: 0.339
AGCGTGTA: 0.365
ACATGGTA: 0.403
ATGCGGGC: 0.314
ATCCACAT: 0.363
ACGCGCGA: 0.257
ACCGCGTG: 0.483
AGGGCACG: 0.32

Series 4
Structure (SMILES): COCCOc1nc(-c2ccc(Cl)nc2)nc2c1CN(C(=O)c1ncn3ccccc13)CC2
Technique: competition with immobilised ligand
Concentration: 0.1 µM
Measurement: remaining binding
Serine/threonine-protein kinase WNK1 (WNK1, Homo sapiens, UniProt Q9H4A3); cell-free assay: 100%
Tyrosine-protein kinase SYK (SYK, Homo sapiens, UniProt P43405); cell-free assay: 100%
MAP/microtubule affinity-regulating kinase 3 (MARK3, Homo sapiens, UniProt P27448); cell-free assay: 100%
Ribosomal protein S6 kinase alpha-1, N-terminal kinase domain (RPS6KA1, Homo sapiens, UniProt Q15418); cell-free assay: 100%
NUAK family SNF1-like kinase 1 (NUAK1, Homo sapiens, UniProt O60285); cell-free assay: 100%
Phosphatidylinositol 4,5-bisphosphate 3-kinase catalytic subunit alpha isoform (PIK3CA, Homo sapiens, UniProt P42336); cell-free assay: 85%
Dual specificity mitogen-activated protein kinase kinase 2 (MAP2K2, Homo sapiens, UniProt P36507); cell-free assay: 100%
Ribosomal protein S6 kinase alpha-2, N-terminal kinase domain (RPS6KA2, Homo sapiens, UniProt Q15349); cell-free assay: 100%
Serine/threonine-protein kinase PLK1 (PLK1, Homo sapiens, UniProt P53350); cell-free assay: 100%
RAC-gamma serine/threonine-protein kinase (AKT3, Homo sapiens, UniProt Q9Y243); binding: 47%
SNF-related serine/threonine-protein kinase (SNRK, Homo sapiens, UniProt Q9NRH2); cell-free assay: 79%
Cyclin-dependent kinase 9 (CDK9, Homo sapiens, UniProt P50750); cell-free assay: 100%
Myosin light chain kinase (MYLK3, Homo sapiens, UniProt Q32MK0); cell-free assay: 83%
Tyrosine-protein kinase ABL1, phosphorylated (ABL1, Homo sapiens, UniProt P00519, F317L); cell-free assay: 100%
Tyrosine-protein kinase ABL1, phosphorylated (ABL1, Homo sapiens, UniProt P00519, Q252H); cell-free assay: 81%
Serine/threonine-protein kinase Sgk1 (SGK1, Homo sapiens, UniProt O00141); cell-free assay: 91%
cAMP-dependent protein kinase catalytic subunit beta (PRKACB, Homo sapiens, UniProt P22694); cell-free assay: 73%
